Published values gathered from unrelated publications.
Compare with care: the assays were run in different laboratories. Numbers after ± are the reported error.

| SMILES | test | test system | conditions | quantity | value |
| --- | --- | --- | --- | --- | --- |
| CC[C@H](C)[C@H](NC(=O)[C@H](CCCCN)NC(=O)CNC(=O)[C@H](CC(C)C)NC(=O)[C@H](Cc1ccccc1)NC(=O)[C@H](CCCCN)NC(=O)[C@H](CO)NC(=O)[C@H](Cc1ccccc1)NC(=O)[C@H](Cc1c[nH]c2ccccc12)NC(=O)[C@H](CCC(N)=O)NC(=O)[C@@H](NC(=O)[C@H](Cc1ccccc1)NC(=O)CCCCCNC(=O)CN1CCN(CC(=O)O)CCN(CC(=O)O)CCN(CC(=O)O)CC1)C(C)C)C(=O)N[C@@H](CCC(=O)O)C(=O)N1CCC[C@H]1C(=O)N[C@@H](CC(=O)O)C(=O)N[C@H](C(=O)N[C@@H](CO)C(=O)N[C@@H](CCC(N)=O)C(=O)N[C@H](C(=O)N[C@@H](CCC(N)=O)C(=O)N[C@@H](CC(=O)O)C(=O)N1CCC[C@H]1C(=O)N[C@@H](CC(N)=O)C(=O)N[C@@H](CC(=O)O)C(=O)N[C@@H](CCC(N)=O)C(=O)N[C@@H](Cc1ccc(O)cc1)C(=O)N[C@@H](CCC(=O)O)C(=O)N1CCC[C@H]1C(=O)N[C@@H](Cc1ccccc1)C(=O)O)C(C)C)C(C)C [copper-64 labelled] |  | C57BL/6 mice, muscle | with: LPS 0.1 mg/kg intratracheal | tissue uptake | 0.26 ± 0.02 %ID/g |
| CCn1ccc(-c2cc(-c3cnn(C)c3)cc([C@@H](C)NC(=O)c3cc(OCCN(C)C)ccc3C)c2)n1 |  | C57BL/6J mice, male, plasma | iv, 10 mg/kg | clearance | 26.8 mL/min/kg |
| CCc1nn(C)c2nc(-c3ccc(C(=O)O)cc3)nc(NCc3ccccc3)c12 |  | male CD-1 mouse, plasma | oral, 10 mg/kg, 24 h | concentration | 50 ng/mL |
| Oc1c(Br)cc(Br)c2nc3ccc(C(F)(F)F)cc3nc12 | haemolysis |  | 200 µM | haemolysis | ≤ 1% |
| CC(C)=CCC/C(C)=C/CCn1cc(CC(P(=O)(O)O)P(=O)(O)O)nn1 |  | mouse (CD-1), brain | intravenous, 0.5 mg/kg, 2 to 168 h | brain drug level | not detected |
| CSCC[C@@H]1NC(=O)[C@H](C(C)C)NC(=O)[C@H](CCCNC(=N)N)NC(=O)[C@@H]2CCCN2C(=O)CNC(=O)[C@@H](NC(=O)CNC(=O)[C@H](CO)NC(=O)CNC(=O)[C@H](CO)NC(=S)Nc2ccc(C[C@H]3CN(CC(=O)O)CCN(CC(=O)O)CCN3CC(=O)O)cc2)CSSC[C@@H](C(N)=O)NC(=O)[C@@H]2CCCN2C(=O)CNC(=O)[C@H](CCC(=O)O)NC(=O)[C@H](CC(=O)O)NC(=O)[C@H](CC(=O)O)NC(=O)CNC(=O)[C@H](CC(C)C)NC(=O)[C@H](Cc2c[nH]cn2)NC(=O)[C@H](CC(C)C)NC(=O)CNC(=O)[C@H](Cc2c[nH]cn2)NC1=O [copper-64 labelled] | dynamic PET | CD rat, myocardial infarction, remote myocardium | intravenous, 18.5 MBq | clearance half-life | 20.8 ± 0.7 min |
| CC(C)[C@H](NC(=O)[C@@H](NC(=O)[C@H](CCCNC(=N)N)NC(=O)[C@H](CCCNC(=N)N)NC(=O)[C@H](CCCNC(=N)N)NC(=O)[C@H](CCC(N)=O)NC(=O)[C@H](CCCNC(=N)N)NC(=O)[C@H](CCCNC(=N)N)NC(=O)[C@H](CCCCN)NC(=O)[C@H](CCCCN)NC(=O)[C@H](CCCNC(=N)N)NC(=O)CN)[C@@H](C)O)C(=O)N[C@H](C(=O)N[C@@H](CO)C(=O)N1CCC[C@H]1C(=O)O)[C@@H](C)O |  | ICR mouse, male, left kidney | intranasal, 20 mg/kg daily, 4 weeks | kidney weight | 0.294 ± 0.016 g |
| CC[C@H](C)[C@H](NC(=O)[C@H](Cc1c[nH]c2ccccc12)NC(=O)c1ccccc1)C(=O)N[C@@H](CCCNC(=N)N)C(=O)N[C@@H](Cc1ccc(O)cc1)C(=O)N[C@@H](CCCCN)C(=O)N[C@@H](Cc1c[nH]c2ccccc12)C(=O)N1CCC[C@@H]1C(=O)N[C@@H](CCCNC(=N)N)C(=O)N[C@@H](CCCCN)C(=O)N[C@H](C(=O)N[C@H](C(=O)N[C@@H](CCCNC(=N)N)C(=O)N[C@@H](Cc1ccc(O)cc1)C(=O)N[C@@H](Cc1c[nH]c2ccccc12)C(=O)N[C@H](C(=O)NCC(=O)N1CCC[C@H]1C(N)=O)[C@@H](C)O)C(C)C)C(C)C | circular dichroism | phosphate buffer | 30 µM, pH 6.5 | melting temperature | 64.5 °C |
| CC(C)[C@@H]1NC(=O)CNC(=O)[C@H](CC(N)=O)NC(=O)[C@H](CCCNC(=N)N)NC(=O)[C@H](Cc2ccc(O)cc2)NC(=O)[C@H](C(C)C)NC(=O)[C@@H](NC(=O)[C@@H](NC(=O)[C@H](CC(N)=O)NC(=O)[C@H](Cc2c[nH]c3ccccc23)NC(=O)[C@H](C)NC(=O)[C@H](Cc2ccccc2)NC(=O)CNC(=O)[C@H](CCCCN)NC(=O)[C@H](Cc2ccccc2)NC(=O)[C@H](Cc2ccccc2)NC(=O)[C@H](CCCCN)NC(=O)OCC2c3ccccc3-c3ccccc32)C(C)C)CSSC[C@@H](C(=O)N[C@@H](Cc2c[nH]cn2)C(=O)N[C@@H](CCCNC(=N)N)C(=O)N[C@@H](CCCNC(=N)N)C(=O)N[C@@H](C)C(=O)N[C@@H](CC(N)=O)C(N)=O)NC(=O)[C@H](C(C)C)NC(=O)[C@H](CCCNC(=N)N)NC1=O |  | ICR mice, blood | intraductal mammary, 5 mg/kg, day 5 | platelet distribution width | 15.9 ± 0.35% |
| O=C1NC2(CC2)COc2ncc(F)cc2[C@H]2COCCN2c2ccn3ncc1c3n2 |  | Sprague-Dawley rat, female, serum | oral, 2.5 mg/kg/day, 4 weeks daily, end of recovery period | glucose | 7.58 ± 0.84 mmol/L |
| CCCCCCCCCCCCCCCC(=O)N[C@@H](CCC(=O)NCCCC[C@H](NC(=O)[C@H](CC(=O)O)NC(=O)[C@H](CO)NC(=O)[C@@H](NC(=O)[C@H](Cc1ccccc1)NC(=O)[C@@H](NC(=O)CNC(=O)[C@H](CCC(N)=O)NC(=O)[C@H](C)NC(=O)[C@@H](Cc1ccc(O)cc1)NC(C)=O)[C@@H](C)O)[C@@H](C)O)C(=O)N[C@@H](CO)C(=O)N[C@@H](CCCCN)C(=O)N[C@@H](Cc1ccc(O)cc1)C(=O)N[C@@H](CC(C)C)C(=O)N[C@@H](CC(=O)O)C(=O)N[C@@H](CCC(=O)O)C(=O)N[C@@H](CCCNC(=N)N)C(=O)N[C@@H](C)C(=O)N[C@@H](C)C(=O)N[C@@H](CCC(N)=O)C(=O)N[C@@H](CC(=O)O)C(=O)N[C@@H](Cc1ccccc1)C(=O)N[C@H](C(=O)N[C@@H](CCC(N)=O)C(=O)N[C@@H](Cc1c[nH]c2ccccc12)C(=O)N[C@@H](CC(C)C)C(=O)N[C@@H](CC(C)C)C(=O)N[C@@H](CCC(=O)O)C(=O)NCC(=O)NCC(=O)N1CCC[C@H]1C(=O)N[C@@H](CO)C(=O)N[C@@H](CO)C(=O)NCC(=O)N[C@@H](C)C(=O)N1CCC[C@H]1C(=O)N1CCC[C@H]1C(=O)N1CCC[C@H]1C(=O)N[C@@H](CO)C(N)=O)C(C)C)C(=O)O |  | male cynomolgus monkey, plasma | subcutaneous, 0.0211 mg/kg | AUC(0-inf) | 1240 ng·h/mL |
| CC[C@H](C)[C@H](NC(=O)[C@H](C)NC(=O)[C@H](C)NC(=O)[C@H](CCC(N)=O)NC(=O)CNC(=O)[C@H](CC(C)C)NC(=O)[C@H](Cc1c[nH]cn1)NC(=O)[C@H](CCCCN)NC(=O)[C@H](C)NC(=O)CNC(=O)[C@H](CCCCN)NC(=O)[C@H](CCCNC(=N)N)NC(=O)[C@H](CC(C)C)NC(=O)[C@H](Cc1c[nH]c2ccccc12)NC(=O)[C@H](CCCCN)NC(=O)[C@H](CCCCN)NC(=O)[C@H](Cc1c[nH]c2ccccc12)NC(=O)CN)C(=O)N[C@@H](CCCCN)C(N)=O |  | zebrafish embryos 4 hpf, E3 medium | 1 h | acute toxic concentration | 25 µM |
| [2H]C([2H])([18F])[C@]([2H])(N)C(=O)O | PET | athymic nude mouse | 90 min | muscle uptake | 0.65 ± 0.23 %ID/cc |
